Experimental data collected from several papers.
Protocols differ between the studies behind these lines.
Medium: plasma
Route: oral

CS(=O)(=O)n1cc2c(n1)CN([C@H]1CO[C@H](c3cc(F)ccc3F)[C@@H](N)C1)C2  Tmax (male human; 10 mg, single dose, fasted): 1 h
CNc1nc(Nc2ccc(-n3cnc(C)n3)c(OC)c2)nc2c1CC[C@H]2c1ccc(F)cc1  Tmax (human; 300 mg, single dose, fasted, healthy volunteers): 3.5 h
O=C(c1nc2n(n1)[C@H](c1ccccc1)C[C@@H]2F)C1CC1  Tmax (human; 5 mg, single dose, fasted, healthy volunteers): 1.29 h
CCCOc1ccc([C@H]2CNC(=O)N2c2ccc3[nH]cnc3c2)cc1  Tmax (human; 30 mg, single dose, fasted): 0.5 h
C[C@@H]1CCC[C@H](n2cnc(-c3cc(Cl)ccc3-n3cc(Cl)nn3)cc2=O)c2cc(ccn2)-c2c(cnn2C(F)F)NC1=O  Tmax (human; 200 mg, single dose, fed, healthy volunteers): 4 h
COc1cccc(-c2ccc(NC(=O)C3=C(C(=O)O)CCC3)c(F)c2)c1  Tmax (male human; 40 mg, single dose, fasted, healthy volunteers): 3.4 h
Nc1ncc(-c2cnn(CCO)c2)c2scc(-c3ccc(NC(=O)Nc4cccc(F)c4)cc3)c12  Tmax (human; 340 mg, patients): 3 h
C#C[C@]1(CO)O[C@@H](n2cnc3c(N)nc(F)nc32)C[C@@H]1O  Tmax (human; 30 mg, single dose, fasted): 0.5 h
CC(=O)N[C@H]1CC[C@H](NC(=O)CN2CCN(c3nncc(-c4ccc(C)cc4)n3)CC2)CC1  Tmax (human; 20 mg, single dose, fasted, healthy volunteers): 1.5 h
